Measurements pooled from the literature.
Each numbered part is a random draw from the data of one study; scales do not carry over between parts. Changes are numbered by the printed parent chain.

Series 1
Target: RNA binding protein fox-1 homolog 2, RRM domain, GST-SBP tag (RBFOX2, Homo sapiens, UniProt O43251-10, residues 100-194)
Method: RNA Bind-n-Seq
Molecule type: RNA
Medium: in vitro
Tested at: 365 nM
Notes: natural RNA segment, single round, ends assumed
Relative to: no-protein control
Direction: higher = stronger binding
Measurement: RBNS enrichment (R)
Residues (chain): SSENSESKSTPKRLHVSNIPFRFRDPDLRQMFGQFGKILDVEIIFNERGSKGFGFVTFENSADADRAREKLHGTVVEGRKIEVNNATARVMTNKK
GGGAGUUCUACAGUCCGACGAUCUUUCCACAGGCAGCAUCCCAAGGUUCAAUAAGGCCUUAUUUAACAAGCAAGCAAAAUGCAAACCAAACCAUUAUUCAUUUAUUGGCUUAAGUAUGCUUUCUCCUGAAAACUGGAAUUCUCGGGUGCCAA: 0.389
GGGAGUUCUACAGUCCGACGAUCUCGGUUCACUGUAGAUCCAGUUCUUCCAGCCGCUUCAGCACUGAGGCGCCAUGAAUGCGGUUUCUCUGUGUAGCUCUGAGAGUUCGUUUCAUAGAACACAACACUUGAGCUGGAAUUCUCGGGUGCCAA: 0.272
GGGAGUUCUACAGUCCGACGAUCUCUAAUUGUUUAAACUGUGUUUUAUACCAGUGUUUGCAAGUAAUUGGGUGUUAGCUUGAGAUGGUUAAAGGUGGUUUGGGGAGGGACUUCGUUGUAAUGGUUUUGCUGUAUGGAAUUCUCGGGUGCCAA: 7.84
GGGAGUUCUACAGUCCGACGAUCUCAUUAAAAAACAAAUUCAGAUGAAAUAUCAGUAACUGUCUUGGACAGUGCUGAAAUCAGGUGGUUAAACGGGUAAACAAAAUAUACUGUAUUUUGAGAAAUGGCACAAAUGGAAUUCUCGGGUGCCAA: 0.316
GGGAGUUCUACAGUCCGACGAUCAUUCAGGGAACCUGUCUUAAAUUGUGCUUAUCUAAAUCUUGGAACUUUGAGCUAGGGGAGGAGAAUGUAUUAGACUAAAUACAAACUGCGGGGUUGUAAGGGAGUCUCAGUGGAAUUCUCGGGUGCCAA: 0.885
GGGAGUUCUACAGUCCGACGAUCAUAACAUAAAUACCAUAAAAAGGAGGAAAUAAAGAUAAGUAAACAUCUCAUUUCUCAAAAAAAAAAAAUGAUGCCUGUGUUUAUGUACAAUUUAAAUGAUUACAGAGUGCUGGAAUUCUCGGGUGCCAA: 0.613
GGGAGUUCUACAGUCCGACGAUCAAUAUAACAGUUAAUGAACUUGGAGUUUAAAUUGUGUACAUUUUUAAAUUGUAAGAUUUUUACUGUAUAUUGAAGCUUAGUGUGAUUCAAUAAAUUGCUUGUAAUUUAAAUGGAAUUCUCGGGUGCCAA: 0.692
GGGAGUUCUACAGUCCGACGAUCUGGGGACUUCCUUCGUCAGCACUGGCUUUCUGUUUUCACAAGACAGACGUCUGUCCCGCUGCUCUCUCCCCAUCUCCUACCCCACAUCCUGUCUUAGCCGCAGUCUCCAGUGGAAUUCUCGGGUGCCAA: 0.535
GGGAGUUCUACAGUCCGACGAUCCCCCGAACCAUGCAUCCAAGUGCAGGCUGGGCUGCGGAUCCUUUUUGGGACCUCGAGGGGACAGCAAGAGAGAAUGAGAGAGGAGCUCCAAUGUGAGCUUUUCGUUCUUAUGGAAUUCUCGGGUGCCAA: 1.24
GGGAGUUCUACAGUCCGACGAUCGUGCUCACCUCCUAGGCCAUGGAGCCUGAGGGGGCCUGCACCAGGUUUGCUGAAACUGACAGAGCCUGGGCUCCAGACCUCUCUCCCUCCUACAGUGCUCUCCCUCCCUGUGGAAUUCUCGGGUGCCAA: 0.921
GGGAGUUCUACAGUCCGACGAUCCCAGAGAGGAGAGCCACUUACUGGCUUGUUCAGCUGCUUUCUUACAGAACAUAGCCUGCCAGCUCAUGGGUGCCAGUGGUUCUCAACUUGUGAGUUGCAACUCCUUUGUCUGGAAUUCUCGGGUGCCAA: 0.384
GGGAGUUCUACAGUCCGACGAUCUCUCUUUAGUUGUGAUUUGAUUCUAUAGUCUGUUUCUAAAUGACAUUUGUCUGUUUCUUAAAUGAUCUCACAGCCAUGGUAAUAAUAGAUGUGUACUCAGAAGAUCAAUAUGGAAUUCUCGGGUGCCAA: 0.531

Series 2
Target: CCNB2, cyclin fold, Cln2 fusion (human)
Method: yeast growth competition, sequencing
Medium: yeast
Notes: weak parent motif
Relative to: not given
Direction: higher = stronger binding
Measurement: normalised enrichment score
Starting sequence: CDC6 docking peptide (human); TLKGRRLVFDNQL
TLPGRRLVFDNQL [K3P]: -0.17
TLKGMRLVFDNQL [R5M]: -0.13
TLKGYRLVFDNQL [R5Y]: -0.0438
TLKGRRLVFDTQL [N11T]: 0.174
TLKGRRSVFDNQL [L7S]: 0.95
TLKYRRLVFDNQL [G4Y]: -0.408
TLKCRRLVFDNQL [G4C]: 0.614
TLKGRRLVFDVQL [N11V]: 0.0519
TLKRRRLVFDNQL [G4R]: 0.395
TLEGRRLVFDNQL [K3E]: -0.0512
TLKGRRLVFDNFL [Q12F]: -0.217
TLKGHRLVFDNQL [R5H]: -0.0571
TLKGRRLVFDEQL [N11E]: 0.0637
TLKGNRLVFDNQL [R5N]: -0.282
CLKGRRLVFDNQL [T1C]: 0.211
TLKGRLLVFDNQL [R6L]: 0.369
TLKGRRCVFDNQL [L7C]: 0.0565
TLKTRRLVFDNQL [G4T]: -0.0904
TLKGRRLVFFNQL [D10F]: -0.118
TLKGRRAVFDNQL [L7A]: -0.0601
TLKGRRLVFTNQL [D10T]: 0.0171
TLKGRRLSFDNQL [V8S]: 0.0722
TLKGRRLNFDNQL [V8N]: 0.666
TLKGRRLVFDNVL [Q12V]: 0.516
TLKGRRLQFDNQL [V8Q]: -0.488

Series 3
Target: Histone acetyltransferase KAT6A, winged helix 1, GST fusion (KAT6A, Homo sapiens, UniProt Q92794, residues 1-85)
Method: protein binding microarray
Molecule type: double-stranded DNA, one strand shown
Medium: in vitro
Tested at: not given
Notes: 8-mer, flanks averaged, mean of 2 arrays, mostly near background
Relative to: not given
Direction: higher = stronger binding
Measurement: E-score
Target sequence (chain): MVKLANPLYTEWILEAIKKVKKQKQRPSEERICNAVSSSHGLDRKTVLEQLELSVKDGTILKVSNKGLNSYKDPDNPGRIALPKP
CCTCTACG: -0.104
GAGGCTCC: 0.00252
AGAGGGAC: -0.133
GCAGGGGA: -0.0146
CAGTAATC: -0.144
GAAAGGTC: -0.0795
AATACTCC: -0.0911
GCAGAGGA: -0.26
CCACATGC: -0.0146
ACAAAGTG: -0.125
CCTTTCGA: -0.0876
GACCACAA: -0.11
CTCCAACC: -0.0469
GACCAGAC: -0.312
CCGATCTA: 0.00548
ATAAATAG: -0.0162
CCTGGACG: -0.0153
CTGGTCCA: -0.203
TAGCGAGA: -0.0947
AATCCATA: -0.195
CTAATGCA: -0.115
CTAAGACC: -0.101
ACCCTGTG: -0.0559
CGGAGCCA: 0.105

Series 4
Target: Interferon regulatory factor 5, full length, phosphomimetic (IRF5, Homo sapiens, UniProt Q13568-2, residues 1-514, K96S/S451D/S453D/S456D/S462D)
Method: protein-binding microarray
Molecule type: double-stranded DNA, one strand shown
Medium: in vitro
Tested at: 250 nM
Notes: 60-bp whole probe
Added: salmon DNA 0.4 mg/ml
Relative to: random background probes
Direction: higher = stronger binding
Measurement: log fluorescence
All sequences stand within: GCCTAGCAC … GTCTTGATTCGCTTGACGCTGCTG
TTAGGACTGGGTTTCGTTTAGTGCTAG: 3.72 z-score
TTAGAACTGGGGTATCGATAAGTGCTA: 2.45 z-score
TCAATTTTCGTTTTGTGACTGTGCTAG: 5.24 z-score
GACGATCTCAGTATCCAGACGTGCTAG: 0.125 z-score
TCAATTTTCATTTTCCAACTGTGCTAG: 2.85 z-score
GACGAACTGGGGACTGGAGGCGTGCTA: -0.528 z-score
GACGGACTGGACTATCGGTACGTGCTA: 3.85 z-score
TGATCCAAAAAGTGTGAGAAGTGCTAG: 0.363 z-score
ACCCCAAAGAGGGGCAGTGTGTGCTAG: -0.684 z-score
TTAGATATCATTCTCGATTAGTGCTAG: 1.78 z-score
CACGGTCTCGGTTTCGGGACGTGCTAG: 3.33 z-score
TTTCATTTTTTTTTTCATCAGTGCTAG: 8.85 z-score
TCATCTAAGGATTTCAGACTGTGCTAG: 0.319 z-score
TTAGAACTGGGCTATCGATTAGTGCTA: 2.16 z-score
TTAGATATCAAACTGGATTAGTGCTAG: 0.157 z-score
GACGGTTTACTACTGCTGACGTGCTAG: -0.0279 z-score
TTAGATTTCAGTTTCGAGTAGTGCTAG: 8.03 z-score

Series 5
Target: CRIPT, C-terminal peptide
Method: DHFR complementation, deep sequencing
Medium: yeast
Notes: single substitutions, model-inferred values
Relative to: wild type
Direction: higher = weaker binding
Measurement: binding free energy change
Starting sequence: ERBIN, PDZ domain 1 (human); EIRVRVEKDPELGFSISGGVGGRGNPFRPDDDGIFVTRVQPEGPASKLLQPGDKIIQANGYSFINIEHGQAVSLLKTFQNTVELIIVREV; partner TKNYKQTSV
I2N: 0.28 kcal/mol
R88H: 0.305 kcal/mol
K54H: 0.127 kcal/mol
V36G: 0.726 kcal/mol
L12I: 1.84 kcal/mol
D53M: 0.249 kcal/mol
T81E: -0.0499 kcal/mol
E83A: 0.0259 kcal/mol
P51S: 0.0947 kcal/mol
P10H: -0.58 kcal/mol
E7T: -0.123 kcal/mol
R28T: -0.0357 kcal/mol
G21T: 0.414 kcal/mol
R88L: 0.779 kcal/mol
R23H: -0.455 kcal/mol
V82M: 1.55 kcal/mol
P26D: 0.89 kcal/mol
V90G: 0.0221 kcal/mol
V36W: 0.645 kcal/mol
D30C: 0.397 kcal/mol
L84A: 0.667 kcal/mol
I66P: 0.886 kcal/mol
G18E: 1.31 kcal/mol
E7K: -0.212 kcal/mol
K54P: 1.07 kcal/mol

Single results of other studies
Method: cross-linking MS
Notes: hits only
COPA: COPA (Homo sapiens, UniProt P53621)
FBL (Homo sapiens, UniProt P22087) — interaction screen (UTP11 (Homo sapiens, UniProt Q9Y3A2)): cross-linked
AP1G1 (Homo sapiens, UniProt O43747) — interaction screen (AP1B1 (Homo sapiens, UniProt Q10567)): cross-linked
COPB1 (Homo sapiens, UniProt P53618) — interaction screen (COPA): cross-linked
ARCN1 (Homo sapiens, UniProt P48444) — interaction screen (COPA): cross-linked
